Experimental data of several laboratories.
± gives the spread as reported.
NOD2 S933A LRR domain: Nucleotide-binding oligomerization domain-containing protein 2, LRR domain (NOD2, Homo sapiens, UniProt Q9HC29, S933A)
Chain of UniProt Q9HC29 (whole entry, unmodified, looked up): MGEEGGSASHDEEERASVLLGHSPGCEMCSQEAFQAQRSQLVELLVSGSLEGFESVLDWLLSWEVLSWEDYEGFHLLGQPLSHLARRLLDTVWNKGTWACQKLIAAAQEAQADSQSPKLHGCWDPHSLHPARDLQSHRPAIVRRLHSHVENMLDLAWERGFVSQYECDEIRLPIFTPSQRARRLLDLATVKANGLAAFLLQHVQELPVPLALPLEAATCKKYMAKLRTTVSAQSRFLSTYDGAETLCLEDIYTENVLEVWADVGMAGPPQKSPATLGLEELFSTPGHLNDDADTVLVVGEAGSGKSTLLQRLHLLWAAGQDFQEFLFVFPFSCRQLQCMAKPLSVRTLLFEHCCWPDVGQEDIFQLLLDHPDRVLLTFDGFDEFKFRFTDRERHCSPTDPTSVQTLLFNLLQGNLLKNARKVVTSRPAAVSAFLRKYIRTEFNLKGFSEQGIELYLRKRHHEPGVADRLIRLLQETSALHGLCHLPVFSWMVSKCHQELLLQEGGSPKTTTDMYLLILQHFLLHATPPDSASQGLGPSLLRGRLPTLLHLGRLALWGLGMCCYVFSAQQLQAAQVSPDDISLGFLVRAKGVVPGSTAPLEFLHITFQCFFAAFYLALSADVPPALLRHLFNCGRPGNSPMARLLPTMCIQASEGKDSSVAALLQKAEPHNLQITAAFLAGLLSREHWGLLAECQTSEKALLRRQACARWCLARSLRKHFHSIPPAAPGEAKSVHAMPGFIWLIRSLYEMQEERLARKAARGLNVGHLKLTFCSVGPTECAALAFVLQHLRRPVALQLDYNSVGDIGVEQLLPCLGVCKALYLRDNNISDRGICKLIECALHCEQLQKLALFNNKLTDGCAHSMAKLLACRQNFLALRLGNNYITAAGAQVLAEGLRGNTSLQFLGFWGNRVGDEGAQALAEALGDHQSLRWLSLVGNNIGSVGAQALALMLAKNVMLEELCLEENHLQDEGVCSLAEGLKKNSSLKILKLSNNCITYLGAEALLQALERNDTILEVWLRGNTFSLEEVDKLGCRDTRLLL
GAP50: Glideosome-associated protein 50 (GAP50, Plasmodium falciparum, UniProt Q8I2X3)
Chain of UniProt Q8I2X3 (whole entry, looked up): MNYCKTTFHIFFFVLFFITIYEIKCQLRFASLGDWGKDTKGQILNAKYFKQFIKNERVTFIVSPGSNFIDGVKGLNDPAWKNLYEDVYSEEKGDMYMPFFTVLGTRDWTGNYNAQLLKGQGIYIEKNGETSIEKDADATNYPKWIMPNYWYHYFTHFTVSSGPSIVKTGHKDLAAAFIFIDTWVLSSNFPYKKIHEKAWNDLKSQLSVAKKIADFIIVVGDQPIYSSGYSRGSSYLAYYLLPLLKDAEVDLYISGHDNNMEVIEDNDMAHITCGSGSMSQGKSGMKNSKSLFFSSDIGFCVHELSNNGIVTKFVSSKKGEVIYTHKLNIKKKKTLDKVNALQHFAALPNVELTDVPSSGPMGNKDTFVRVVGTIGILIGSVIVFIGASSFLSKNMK
USP51 ZnF-UBD domain: Ubiquitin carboxyl-terminal hydrolase 51, ZnF-UBD domain (USP51, Homo sapiens, UniProt Q70EK9)
Chain of UniProt Q70EK9 (whole entry, looked up): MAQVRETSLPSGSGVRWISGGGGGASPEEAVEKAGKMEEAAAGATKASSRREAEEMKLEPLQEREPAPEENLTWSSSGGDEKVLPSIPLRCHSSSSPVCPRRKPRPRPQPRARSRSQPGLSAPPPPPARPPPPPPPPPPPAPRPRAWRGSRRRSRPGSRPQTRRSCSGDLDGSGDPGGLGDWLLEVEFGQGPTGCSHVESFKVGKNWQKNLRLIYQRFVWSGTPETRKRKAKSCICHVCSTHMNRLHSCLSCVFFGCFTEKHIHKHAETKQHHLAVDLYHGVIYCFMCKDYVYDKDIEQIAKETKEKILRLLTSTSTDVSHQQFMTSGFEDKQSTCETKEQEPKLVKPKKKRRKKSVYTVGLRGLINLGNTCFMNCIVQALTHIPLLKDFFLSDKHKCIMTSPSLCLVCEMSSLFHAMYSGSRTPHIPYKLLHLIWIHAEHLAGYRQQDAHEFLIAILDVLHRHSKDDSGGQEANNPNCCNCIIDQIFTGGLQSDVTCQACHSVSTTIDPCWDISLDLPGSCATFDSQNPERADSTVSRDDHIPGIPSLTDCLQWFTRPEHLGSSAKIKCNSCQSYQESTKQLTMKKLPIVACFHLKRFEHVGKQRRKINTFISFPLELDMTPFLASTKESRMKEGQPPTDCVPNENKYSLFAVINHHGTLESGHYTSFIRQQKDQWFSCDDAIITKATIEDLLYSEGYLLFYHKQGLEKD
Chain of UniProt P10636 (whole entry, looked up): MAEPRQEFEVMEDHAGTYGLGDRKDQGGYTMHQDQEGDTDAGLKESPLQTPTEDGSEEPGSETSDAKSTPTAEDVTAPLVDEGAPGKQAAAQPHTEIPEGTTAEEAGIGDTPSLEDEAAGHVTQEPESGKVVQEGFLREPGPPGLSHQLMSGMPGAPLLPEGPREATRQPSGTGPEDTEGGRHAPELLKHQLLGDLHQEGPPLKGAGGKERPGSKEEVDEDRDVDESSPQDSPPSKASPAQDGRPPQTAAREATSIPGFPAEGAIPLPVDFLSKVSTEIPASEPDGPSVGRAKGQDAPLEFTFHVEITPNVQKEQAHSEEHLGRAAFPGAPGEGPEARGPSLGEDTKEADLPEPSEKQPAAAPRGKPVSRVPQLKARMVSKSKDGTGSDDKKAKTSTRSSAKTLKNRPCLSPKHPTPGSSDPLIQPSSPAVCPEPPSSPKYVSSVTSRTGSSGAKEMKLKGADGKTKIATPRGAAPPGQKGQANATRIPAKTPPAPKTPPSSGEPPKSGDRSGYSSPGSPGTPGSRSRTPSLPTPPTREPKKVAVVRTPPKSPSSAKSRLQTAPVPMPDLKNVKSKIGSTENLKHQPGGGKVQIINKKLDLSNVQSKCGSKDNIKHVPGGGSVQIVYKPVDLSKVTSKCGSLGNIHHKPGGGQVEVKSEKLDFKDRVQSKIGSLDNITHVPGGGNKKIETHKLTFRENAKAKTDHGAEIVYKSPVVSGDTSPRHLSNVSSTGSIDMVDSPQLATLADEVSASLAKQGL

| SMILES | target | observed | method | matrix | setting | Kd |
| --- | --- | --- | --- | --- | --- | --- |
| CC(=O)N[C@@H]1[C@@H](O)[C@H](O)[C@@H](CO)O[C@H]1O | NOD2 S933A LRR domain | – | surface plasmon resonance | – | LRR mutant S933A | 0.599 ± 0.089 µM |
| c1coc(CNc2nc(N3CCCCC3)nc3ccccc23)c1 | GAP50 | binding | surface plasmon resonance | – | 1:1 binding model | 24.5 µM |
| Cc1sc2ncn(CC(=O)O)c(=O)c2c1C | USP51 ZnF-UBD domain | – | – | – | – | > 1000 µM |
| N=c1n(CCN2CCCCC2)c2ccccc2n1CC(O)COc1ccc(Cl)cc1Cl (stereo not shown) | GAP50 | binding | surface plasmon resonance | – | 1:1 binding model | 56.3 µM |
| CC(=O)NC1C(O)OC(CN)C(O)[C@@H]1O[C@H](C)C(=O)N[C@@H](C)C(=O)N[C@H](CCC(=O)O)C(N)=O (stereo partly shown) | NOD2 S933A LRR domain | – | surface plasmon resonance | – | LRR mutant S933A | 0.409 ± 0.029 µM |
| O=C(O)CCN1C(=O)c2ccccc2S1(=O)=O | USP51 ZnF-UBD domain | – | – | – | – | > 1000 µM |
| O=C(O)Cc1cc(-c2ccc(C(=O)O)s2)sc1-c1ccc(-c2sc(-c3ccc(C(=O)O)s3)cc2CC(=O)O)s1 | Microtubule-associated protein tau, 0N4R isoform, aggregated (MAPT, Homo sapiens, UniProt P10636) | binding | fluorescence | 40% sucrose tau fraction | – | 1.28 µM |
| Cc1cc(NCCc2ccccc2)nc(NC(=N)Nc2ccc(Cl)cc2)n1 | GAP50 | binding | surface plasmon resonance | – | 1:1 binding model | 15.8 µM |
| O=C(O)CCC(=O)c1cccs1 | USP51 ZnF-UBD domain | – | – | – | – | > 1000 µM |
| Cc1cc2nc3c(=O)[nH]c(=O)nc-3n(C[C@H](O)[C@H](O)[C@H](O)COP(=O)(O)OP(=O)(O)OC[C@H]3O[C@@H](n4cnc5c(N)ncnc54)[C@H](O)[C@@H]3O)c2cc1C | human RBM38 and RBM24 | binding | competition pulldown mass spectrometry | SW-620 cell lysate | – | 0.006 µM |
